Experimental data pooled from the literature.
Numbered parts are unrelated; each lists some results of a single study. Substitutions count along the parent as printed.

Set 1 — technique: protein binding microarray; form: double-stranded DNA, one strand shown; matrix: in vitro; tested at: not given; relative to: not given; reading: higher = stronger binding
Target: Histone acetyltransferase KAT6A, both winged helices, GST fusion (KAT6A, Homo sapiens, UniProt Q92794, residues 1-181)
Notes: 8-mer, flanks averaged, mean of 2 arrays, mostly near background
Construct (chain): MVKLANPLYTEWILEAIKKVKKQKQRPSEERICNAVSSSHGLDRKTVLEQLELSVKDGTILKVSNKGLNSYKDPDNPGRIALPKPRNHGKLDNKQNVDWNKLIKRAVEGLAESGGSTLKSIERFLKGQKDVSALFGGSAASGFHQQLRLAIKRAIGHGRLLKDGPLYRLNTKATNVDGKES
| Sequence | E-score |
| --- | --- |
| CGGACACC | 0.16 |
| CTCAGCAA | 0.0462 |
| GATTTCGA | 0.0934 |
| TGGCACCA | -0.175 |
| AGCCAAGG | -0.23 |

Set 2 — technique: protein-binding microarray; form: double-stranded DNA, one strand shown; matrix: in vitro; tested at: 2540 nM top; notes: 60-bp whole probe; together with: salmon DNA 0.4 mg/ml; relative to: random background probes; reading: higher = stronger binding
Target: Interferon regulatory factor 3, full length, phosphomimetic (IRF3, Homo sapiens, UniProt Q14653, residues 1-427, S386D/S396D/S398D/S402D/T404D/S405D)
Shared flanks, not repeated: GCCTAGCAC … GTGCTAGGTCTTGATTCGCTTGACGCTGCTG
Construct (chain): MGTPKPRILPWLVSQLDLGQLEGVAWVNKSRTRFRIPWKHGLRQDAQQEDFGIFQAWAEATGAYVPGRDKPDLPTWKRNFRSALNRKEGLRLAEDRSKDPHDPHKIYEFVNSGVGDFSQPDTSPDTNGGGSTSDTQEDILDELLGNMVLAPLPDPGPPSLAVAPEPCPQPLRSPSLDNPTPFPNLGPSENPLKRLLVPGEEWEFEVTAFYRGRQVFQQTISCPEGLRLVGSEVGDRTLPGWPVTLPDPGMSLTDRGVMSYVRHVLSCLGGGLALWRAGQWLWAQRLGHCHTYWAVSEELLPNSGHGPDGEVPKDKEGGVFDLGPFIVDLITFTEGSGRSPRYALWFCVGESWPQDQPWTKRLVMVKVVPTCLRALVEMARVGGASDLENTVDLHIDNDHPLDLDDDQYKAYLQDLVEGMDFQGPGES
| Sequence | fitted relative affinity |
| --- | --- |
| GACGGTATCCTACTCCTGAC | 3.95 z-score |
| TCACTTTTATTTTCAGTACT | 3.24 z-score |
| GTAGAACTGAGTTTCGATTA | 2.65 z-score |
| TCATCTCTCTATTCAGAACT | 1.46 z-score |
| CTCTGTTTATGTCTGGGTAT | 0.405 z-score |
| TAAAACATCATTTTTCCCTC | 0.596 z-score |
| GACGATCTCAGTCTCGAGAG | 0.694 z-score |
| GAGGAACTGAGTATCGAGAC | -0.364 z-score |
| TTATGTCTCGGACTGGGTTA | -0.179 z-score |

Set 3 — target: CCNB2, cyclin fold, Cln2 fusion (human); technique: yeast growth competition, sequencing; matrix: yeast; notes: strong parent motif; relative to: not given; reading: higher = stronger binding
Starting sequence: MICAL3 docking peptide (human); LQLRRQLSFSEDS
| Substitution | normalised enrichment score |
| --- | --- |
| L7F | 0.142 |
| Q6D | 0.146 |
| Q2S | 3.82 |
| R5A | 0.0621 |
| E11F | 1.52 |
| S8I | 1.5 |
| L3G | 0.0053 |
| E11R | 1.43 |
| Q2I | 2.68 |

Further values, each from its own experiment
| Molecule | target | assay | test system | setting | scale | quantity | value |
| --- | --- | --- | --- | --- | --- | --- | --- |
| PhoQ, residues 284 288 289 292 302 303 QWQEDG | PhoP, residues 12 14 15 18 19 VHSCL (Escherichia coli, UniProt P23836) | Sort-seq, item: YFP reporter | E. coli | PhoQ-PhoP variant library, together with: 10 µM Mg2+ | relative to: high Mg2+ state, higher = stronger signaling | fold induction | 1.37 |

A few entries again (set 1):
| Sequence | E-score |
| --- | --- |
| TGGCACCA | -0.175 |
| AGCCAAGG | -0.23 |
